# Results collected from several papers.
# Parts stem from different laboratories: compare values within a part only.

# Series 1
# Target: Vascular endothelial growth factor receptor 1 (FLT1, Homo sapiens, UniProt P17948)
# UniProt P17948, sequence (whole entry, looked up): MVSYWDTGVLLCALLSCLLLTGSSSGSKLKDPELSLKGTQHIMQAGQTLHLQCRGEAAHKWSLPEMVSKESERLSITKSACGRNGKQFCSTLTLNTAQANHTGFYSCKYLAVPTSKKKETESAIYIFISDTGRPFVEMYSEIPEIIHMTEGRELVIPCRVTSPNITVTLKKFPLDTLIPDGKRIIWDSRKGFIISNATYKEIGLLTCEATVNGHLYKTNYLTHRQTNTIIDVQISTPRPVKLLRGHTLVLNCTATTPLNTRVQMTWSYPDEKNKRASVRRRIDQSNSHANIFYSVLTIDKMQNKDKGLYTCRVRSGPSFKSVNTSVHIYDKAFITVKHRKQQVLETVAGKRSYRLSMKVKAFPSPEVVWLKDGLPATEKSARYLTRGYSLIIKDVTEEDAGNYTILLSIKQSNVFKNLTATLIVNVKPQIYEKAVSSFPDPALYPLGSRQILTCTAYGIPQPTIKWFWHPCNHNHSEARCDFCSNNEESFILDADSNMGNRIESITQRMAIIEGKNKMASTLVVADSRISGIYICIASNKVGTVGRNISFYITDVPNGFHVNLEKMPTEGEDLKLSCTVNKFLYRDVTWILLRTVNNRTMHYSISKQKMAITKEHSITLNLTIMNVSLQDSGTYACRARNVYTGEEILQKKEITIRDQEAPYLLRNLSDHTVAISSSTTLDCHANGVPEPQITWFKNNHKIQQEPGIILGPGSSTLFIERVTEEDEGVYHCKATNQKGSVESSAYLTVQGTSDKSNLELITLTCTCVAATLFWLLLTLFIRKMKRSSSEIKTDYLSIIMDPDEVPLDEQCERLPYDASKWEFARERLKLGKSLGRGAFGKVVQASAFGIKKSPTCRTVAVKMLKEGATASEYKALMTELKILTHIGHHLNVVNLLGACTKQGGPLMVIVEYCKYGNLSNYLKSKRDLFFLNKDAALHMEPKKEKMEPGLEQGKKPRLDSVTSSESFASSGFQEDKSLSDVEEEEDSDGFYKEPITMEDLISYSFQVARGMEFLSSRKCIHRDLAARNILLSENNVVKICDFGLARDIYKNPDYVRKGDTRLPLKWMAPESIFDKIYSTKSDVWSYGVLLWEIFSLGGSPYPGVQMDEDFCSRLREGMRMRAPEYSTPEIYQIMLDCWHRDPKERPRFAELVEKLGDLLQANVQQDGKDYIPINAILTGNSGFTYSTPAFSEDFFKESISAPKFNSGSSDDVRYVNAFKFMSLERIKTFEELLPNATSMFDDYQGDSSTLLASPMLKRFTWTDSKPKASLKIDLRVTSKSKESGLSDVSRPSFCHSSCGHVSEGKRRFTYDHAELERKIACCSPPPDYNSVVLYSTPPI
# Read-out: enzyme activity
# Mode: inhibitor
# Tested at: 0.5 µM
# Reference: control
SMILES,remaining activity
Cc1ccc(Nc2nccc(N(C)c3ccc4c(C)n(C)nc4c3)n2)cc1S(N)(=O)=O,27.2%
CO[C@H]1C[C@@H]2CC[C@@H](C)[C@@](O)(O2)C(=O)C(=O)N2CCCC[C@H]2C(=O)O[C@H]([C@H](C)C[C@@H]2CC[C@@H](O)[C@H](OC)C2)CC(=O)[C@H](C)/C=C(\C)[C@@H](O)[C@@H](OC)C(=O)[C@H](C)C[C@H](C)/C=C/C=C/C=C/1C,97.7%
O=C(Nc1cccc(Nc2cc(Nc3cccc(C(F)(F)F)c3)ncn2)c1)C1CC1,99.4%
COc1cc2nccc(Oc3ccc(NC(=S)NC(=O)c4ccccc4C)cc3)c2cc1OC,89.8%
Cc1nc(-c2ccccc2)c(-c2ccncc2)o1,79.4%
O=C(CCCc1ccc(-c2ccccc2F)cc1)Nc1ccc(O)cc1,93.1%
CN(C)c1ccc(C=C2C(=O)Nc3ccccc32)cc1,92%
O=C1NC(=O)C(c2cn(CCCO)c3ncccc23)=C1c1cnccn1,89.4%
OCC(O)CCON=C1C(c2c(O)[nH]c3ccccc23)=Nc2ccccc21 (centres unmarked),51%
Nc1ccc2ncnc(NCCc3ccc(Oc4ccccc4)cc3)c2c1,96%
Cc1cccc(-c2[nH]c(C(C)(C)C)nc2-c2ccc3c(c2)OCO3)n1,84.3%
NCCNc1ncc(C(N)=O)c(Nc2cccc(C(F)(F)F)c2)n1,87.5%
Cn1c2ccccc2c2c3c(c4c5ccccc5n(CCC#N)c4c21)CNC3=O,63.6%
COc1ccc(CNC(=O)Nc2ncc([N+](=O)[O-])s2)cc1,96.8%
COc1cc2ncnc(Nc3ccc(Oc4ccccc4)cc3)c2cc1OC,79.8%

# Series 2
# Organism: Plasmodium berghei
# Mode: inhibitor
# Cells: Huh-7
# Strain: GFP-expressing, liver stage
# Tested at: 10 µM
# Time: 24 h
# Reference: untreated control
Structure (SMILES),infection rate [%]
COc1ccccc1OCC(O)CN1CCN(CC(=O)Nc2c(C)cccc2C)CC1 (centres unmarked),99.7
CCOC(=O)[C@H](CCc1ccccc1)N[C@@H](C)C(=O)N1Cc2ccccc2C[C@H]1C(=O)O,67.4
CN1Cc2c(N)cccc2C(c2ccccc2)C1 (centres unmarked),105
COC(=O)Nc1nc2cc([S+]([O-])c3ccccc3)ccc2[nH]1 (centres unmarked),104
CC(=O)O[C@H]1C(=O)[C@@]2(C)[C@H]([C@H](OC(=O)c3ccccc3)[C@]3(O)C[C@H](OC(=O)[C@H](O)[C@@H](NC(=O)c4ccccc4)c4ccccc4)C(C)=C1C3(C)C)[C@]1(OC(C)=O)CO[C@@H]1C[C@@H]2O,72
CCCCCCCCN[C@@H](C)[C@H](O)c1ccc(SC(C)C)cc1 (racemic),26.4

# Series 3
# Host: mouse
# Medium: microsomes or S9
# Tested at: 2 µM
# Time: 0.5 h
SMILES,remaining compound [%]
O=S(=O)(/C(=C(\c1ccccc1)n1ccnc1)c1ccccc1)c1ccccc1,4.54
O=S(=O)(Cc1ccccc1)CC(O)Cn1cccn1 (centres unmarked),75.8
CC1(C)CC(CNCCC(c2ccc(F)cc2)c2ccco2)CCO1 (centres unmarked),7.45
CCc1cc(=O)[nH]c(-n2nc(C)cc2NC(=O)c2c(-c3ccccc3Cl)noc2C)n1,> 100
CCOC(=O)C1CCN(c2nc(C)cc(Cl)n2)CC1,0.00274
Cn1c(=O)c2cc(C(=O)O)c(=O)n(C)c2n(C)c1=O,50.3

# Series 4
# Target: Histamine H2 receptor (HRH2, Homo sapiens, UniProt P25021)
# UniProt P25021, sequence (whole entry, looked up): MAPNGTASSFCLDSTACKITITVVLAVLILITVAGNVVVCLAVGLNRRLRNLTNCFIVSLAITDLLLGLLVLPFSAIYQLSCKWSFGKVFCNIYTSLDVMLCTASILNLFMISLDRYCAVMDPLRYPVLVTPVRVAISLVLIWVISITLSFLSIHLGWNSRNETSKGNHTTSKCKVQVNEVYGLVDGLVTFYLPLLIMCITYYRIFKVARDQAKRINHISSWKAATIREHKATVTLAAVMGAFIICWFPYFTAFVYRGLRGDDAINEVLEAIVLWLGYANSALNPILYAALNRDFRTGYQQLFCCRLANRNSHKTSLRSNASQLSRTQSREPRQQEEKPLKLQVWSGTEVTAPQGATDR
# Read-out: binding
# Method: radioligand binding
# Tested at: 10 µM
SMILES,inhibition [%]
O=C(Nc1cccnn1)N1CCC(=Cc2cccc(Oc3ccc(C(F)(F)F)cn3)c2)CC1,17.3
O=C(Nc1ccc(-n2nc(-c3cccnc3)cc2C(F)(F)F)cn1)c1ccc(-c2ccccc2)c(F)c1,-5.62
Cc1c(N2CCCC2)nc2ccc(Br)cc2c1C(=O)NC[C@H](CCC(=O)O)c1ccccc1Cl,23.3
COc1nc2ccc([C@@](O)(c3ccccc3)C3CCN(C(C)=O)CC3)cc2c(Cl)c1Cc1ccc(-n2cccn2)cc1,-0.99
Nc1c(C(=O)NCc2ccc(C(=O)NCCCC3CCCCC3)cc2)cnn1-c1ccccc1,-12.2
Cc1nccc(COC(=O)N2C[C@@H]3[C@@H](CNC(=O)c4ccc5[nH]nnc5c4)[C@@H]3C2)n1,-0.15
O=C(Nc1cccnn1)N1CC(CC=Cc2cncc(Oc3ccc(C(F)(F)F)cn3)n2)C1,-3.96

# Single results of other studies
Compound,assay,test system,setting,scale,measurement,value
COc1ccc(-c2c(Nc3ccccn3)[nH]c3c(C4=CCCCC4)c(-c4ccccc4)nn3c2=O)cc1,immunohistochemistry,"human, tumour biopsy","100 mg per day, 2688 h",reference: before treatment,SDMA staining reduction,81%

# For quick reference, copied from above (series 1):
SMILES,remaining activity
Cc1ccc(Nc2nccc(N(C)c3ccc4c(C)n(C)nc4c3)n2)cc1S(N)(=O)=O,27.2%
Cc1nc(-c2ccccc2)c(-c2ccncc2)o1,79.4%
O=C1NC(=O)C(c2cn(CCCO)c3ncccc23)=C1c1cnccn1,89.4%
O=C(CCCc1ccc(-c2ccccc2F)cc1)Nc1ccc(O)cc1,93.1%
Nc1ccc2ncnc(NCCc3ccc(Oc4ccccc4)cc3)c2c1,96%
